Assay results pooled from the literature.
Numbered parts are unrelated; each lists some results of a single study. Positions count from the first letter of the parent shown.

Block 1 — read-out: peptide-MHC binding; molecule type: peptide; tested at: concentration not given
Target: HLA class I histocompatibility antigen, A alpha chain, allele A*25:01 (Homo sapiens, UniProt P04439)
Sequence | binding
AMDTHLYFE | inactive
KQIPIWLPL | inactive
NMVADLWHA | inactive
SMHYKLDEV | inactive
KLKKKSAFY | inactive
KVADVDLAVPV | inactive
RYEFTAPFI | inactive
YDRLASTVI | inactive
LMRRFRFTV | inactive
WKAIGAYIL | inactive
AELIDSFTW | inactive
MTQNISNDK | inactive
NTFKFGVIY | inactive
SIYYTLVRM | inactive
MRIGSMATL | inactive
VSSHKGWAK | inactive
VVRVRRELL | inactive
LELIGNAES | inactive
PELGAFFAI | inactive
YPDPVIKV | inactive
VVSEIDLQW | inactive
SLFGAAVSL | inactive
YALTEYHAM | inactive
FRDEAGAIL | inactive
WLGWGHAWV | inactive

Block 2 — technique: RNA Bind-n-Seq; molecule type: RNA; matrix: in vitro; tested at: 100 nM; relative to: input RNA pool; direction: higher = stronger binding
Target: RING finger protein unkempt homolog, zinc fingers 1-6, SBP tag (UNK, Homo sapiens, UniProt Q9C0B0, residues 30-357)
UniProt Q9C0B0, sequence (30-357, looked up): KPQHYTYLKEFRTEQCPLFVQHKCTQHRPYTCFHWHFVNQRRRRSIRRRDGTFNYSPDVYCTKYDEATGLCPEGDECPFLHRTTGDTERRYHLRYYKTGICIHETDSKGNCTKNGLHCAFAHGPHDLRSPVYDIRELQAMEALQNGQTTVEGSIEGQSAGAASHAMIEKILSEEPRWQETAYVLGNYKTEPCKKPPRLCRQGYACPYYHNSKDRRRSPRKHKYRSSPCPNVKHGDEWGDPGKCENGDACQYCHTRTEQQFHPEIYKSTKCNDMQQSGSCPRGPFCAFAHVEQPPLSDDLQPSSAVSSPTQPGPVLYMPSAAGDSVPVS
Setting: RNA with constant flanks, vertebrate orthologous sites, ends assumed
Shared flanks, not repeated: GGGAGUUCUACAGUCCGACGAUC … CAACAGAGGAUUGAGCAUCA
Strand | bound/input enrichment [ratio]
UUAUUUUCAAUCUCUUCUCCCCCUUCCUGAUUUUAAAAGCCCUUCUUUUUUUAGGCAUAUGUAGUAGCAUUAGCAAAGAUGAUUUAAUUUGGGUAACUUUGAUUCUUAAAACAGAAAACA | 0.851
AGUUUGUAUGCACAUUAUUCACAUUCCUCUGUUGUGUUUGCAAAAAAAUAAGAAGACAUUUUAGUCUUUUCUAAGGAUUUUCAAUCCAAUUUCUCAUUUGGUUGCAUGAAGUUGCCCUUA | 0.413
CAGUGCCCUGGGCCGGGACAGAUUUUUUUUUAACUUCUUGAAACUUAAACUCUGUGCUUGUAGGAUACUGUAACCUUUUUGUCUUUUUUUUUUUUUUUUUUUUUUUUAUAAAAAAAAAAC | 1.01
GGUGGGUCUGGGAUAGAAGGGAGGGAAGGGGCAGGAUAUGUGGAAUCUAGGGUAUAUGGGGAGGUGGGGGCAGUUAGUUCUAAGUGGGCUUUAUGUUACCUAUUGUGGGGGUGAGGACAG | 1.26
CUCCCUGUCACUGUGAUAUUUAAAAUAUGCACAGUCUUAAUUUUGUUUCCCAAACGAUUCUAGUAAUUUCCCAGCAAUAGCUCUCUCUUACCUGUUAUUUAUCAAUUCCCCCACUUCCCC | 3.52
CUUCCUUCCUUUUCCUUUUUUUCUUUUUUCUUCUCUUUUCUUUCUUUUUUUUUUUUUUGGUAGUUGUUGUUACCCACGCCAUUUUACGUCUCCUUCACUGAAGGGCUAGAGUUUUAACUU | 1.75
AUUUACACUAAUACUGAGGUUACAGUUAAAAGGAUAUCCAAGGUGAUAAUAAAGUGUGUGUUGGUAGUUACUAAAAGAACUUUAGCUAUUACUGCCUUGUAUUUCUAUCCCUUGUUUCAG | 0.226
CAGCUGAUUCACUCAUUGGGAGAGCUGCACAUAUAGCUGUUCUUGAUUCGGAAAUAUUUUUAGAGAAAUUCUUUCUGGUUGCUGCCCUCAAAUAUUUCCAAUAGGAUAAAAACAUUGUUA | 1.3

Block 3 — target: CCND3, cyclin fold, Cln2 fusion (human); technique: yeast growth competition, sequencing; matrix: yeast; setting: weak parent motif; relative to: not given; direction: higher = stronger binding
Parent: viral docking peptide; KGVKRKLFAEDSS; partner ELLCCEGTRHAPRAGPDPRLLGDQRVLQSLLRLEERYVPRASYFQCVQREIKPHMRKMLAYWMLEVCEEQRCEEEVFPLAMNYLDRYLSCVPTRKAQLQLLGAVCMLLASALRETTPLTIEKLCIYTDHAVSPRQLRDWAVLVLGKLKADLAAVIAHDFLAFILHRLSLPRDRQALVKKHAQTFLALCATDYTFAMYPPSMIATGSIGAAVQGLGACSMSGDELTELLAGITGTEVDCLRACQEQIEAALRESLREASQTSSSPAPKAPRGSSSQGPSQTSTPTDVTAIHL
Variant | normalised enrichment score
KGVKRKLNAEDSS [F8N] | -0.0522
KGSKRKLFAEDSS [V3S] | 0.487
KGVKRKLFAEFSS [D11F] | 0.474
KLVKRKLFAEDSS [G2L] | -0.117
KWVKRKLFAEDSS [G2W] | 0.515
KGVKRKLFKEDSS [A9K] | 0.296
KGVKRKLFAEWSS [D11W] | -0.191
KGVKRKLFCEDSS [A9C] | 0.135
KGVKRVLFAEDSS [K6V] | 0.104
KGVKRKLFATDSS [E10T] | -0.0467
KGVKRPLFAEDSS [K6P] | 0.194
KGVGRKLFAEDSS [K4G] | 0.277
KGEKRKLFAEDSS [V3E] | 0.206
KGVKRKLFAEDLS [S12L] | 0.238
KGVNRKLFAEDSS [K4N] | -0.0887

Block 4 — technique: protein-binding microarray; molecule type: double-stranded DNA, one strand shown; matrix: in vitro; tested at: not given; direction: higher = stronger binding
Target: Myc proto-oncogene protein, bHLH-zipper, MAX partner unstated (MYC, Homo sapiens, UniProt P01106, residues 368-449)
UniProt P01106, sequence (368-449, looked up): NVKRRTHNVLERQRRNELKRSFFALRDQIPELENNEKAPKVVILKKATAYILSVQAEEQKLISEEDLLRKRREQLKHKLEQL
Setting: k-mer, scored over probes, only values ≥0.25
Strand | E-score
ACATCATG | 0.277
CACCACAC | 0.316
CATGGCTA | 0.361
CATCGTGC | 0.38
ATGCCACG | 0.427
ACTGCGTG | 0.345
CACACCAC | 0.348
CATGCAGA | 0.25

For quick reference, copied from above (block 3):
Variant | normalised enrichment score
KGVKRVLFAEDSS [K6V] | 0.104
KWVKRKLFAEDSS [G2W] | 0.515
KGVKRKLNAEDSS [F8N] | -0.0522
KGVKRKLFAEFSS [D11F] | 0.474
KGVKRKLFKEDSS [A9K] | 0.296
KLVKRKLFAEDSS [G2L] | -0.117
